Results pooled from the literature.
Every numbered part comes from another study and shows a few of its results, in no order.

Sample 1
Target: Histone acetyltransferase KAT6A, both winged helices, GST fusion (KAT6A, Homo sapiens, UniProt Q92794, residues 1-181)
Method: protein binding microarray
Molecule type: double-stranded DNA, one strand shown
Matrix: in vitro
Tested at: not given
Notes: 8-mer, flanks averaged, mean of 2 arrays, mostly near background
Baseline: not given
Direction: higher = stronger binding
Target sequence (chain): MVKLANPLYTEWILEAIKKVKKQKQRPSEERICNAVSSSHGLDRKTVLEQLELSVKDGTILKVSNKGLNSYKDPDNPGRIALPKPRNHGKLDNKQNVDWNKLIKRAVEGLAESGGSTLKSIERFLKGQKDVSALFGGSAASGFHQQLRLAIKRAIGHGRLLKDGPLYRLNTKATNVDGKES
Oligonucleotide	E-score
ATAGAAGA	0.0252
CCCCACCG	0.0598
AATACCGA	0.0807
CTAAGACC	-0.116
GCACGTAC	0.0114
ACTCGGAT	0.108
CTAACAAA	-0.0929
AAAGTGTC	-0.0632
CGCTCTAC	0.147
ATACATTA	0.0371
GCCTTTGA	-0.0571
AGGATAAG	-0.05
CTTCGGCC	0.0433
ATGATCCG	0.21
AGGCTTAA	-0.0968
ACGACGGA	0.222
AATGAGAA	-0.0102
CAAACATC	-0.0826
CGCGATAA	0.122
GGAGTTCA	-0.129
CTTCCAAA	-0.187
GTACAGAC	-0.00549
ATCAGTCC	-0.0864
CGAAATGC	-0.0813
ATGCTAGG	-0.0921

Sample 2
Target: Sal-like protein 4, full length isoform A (SALL4, Homo sapiens, UniProt Q9UJQ4, residues 1-1053)
Chain of UniProt Q9UJQ4 (whole entry, looked up): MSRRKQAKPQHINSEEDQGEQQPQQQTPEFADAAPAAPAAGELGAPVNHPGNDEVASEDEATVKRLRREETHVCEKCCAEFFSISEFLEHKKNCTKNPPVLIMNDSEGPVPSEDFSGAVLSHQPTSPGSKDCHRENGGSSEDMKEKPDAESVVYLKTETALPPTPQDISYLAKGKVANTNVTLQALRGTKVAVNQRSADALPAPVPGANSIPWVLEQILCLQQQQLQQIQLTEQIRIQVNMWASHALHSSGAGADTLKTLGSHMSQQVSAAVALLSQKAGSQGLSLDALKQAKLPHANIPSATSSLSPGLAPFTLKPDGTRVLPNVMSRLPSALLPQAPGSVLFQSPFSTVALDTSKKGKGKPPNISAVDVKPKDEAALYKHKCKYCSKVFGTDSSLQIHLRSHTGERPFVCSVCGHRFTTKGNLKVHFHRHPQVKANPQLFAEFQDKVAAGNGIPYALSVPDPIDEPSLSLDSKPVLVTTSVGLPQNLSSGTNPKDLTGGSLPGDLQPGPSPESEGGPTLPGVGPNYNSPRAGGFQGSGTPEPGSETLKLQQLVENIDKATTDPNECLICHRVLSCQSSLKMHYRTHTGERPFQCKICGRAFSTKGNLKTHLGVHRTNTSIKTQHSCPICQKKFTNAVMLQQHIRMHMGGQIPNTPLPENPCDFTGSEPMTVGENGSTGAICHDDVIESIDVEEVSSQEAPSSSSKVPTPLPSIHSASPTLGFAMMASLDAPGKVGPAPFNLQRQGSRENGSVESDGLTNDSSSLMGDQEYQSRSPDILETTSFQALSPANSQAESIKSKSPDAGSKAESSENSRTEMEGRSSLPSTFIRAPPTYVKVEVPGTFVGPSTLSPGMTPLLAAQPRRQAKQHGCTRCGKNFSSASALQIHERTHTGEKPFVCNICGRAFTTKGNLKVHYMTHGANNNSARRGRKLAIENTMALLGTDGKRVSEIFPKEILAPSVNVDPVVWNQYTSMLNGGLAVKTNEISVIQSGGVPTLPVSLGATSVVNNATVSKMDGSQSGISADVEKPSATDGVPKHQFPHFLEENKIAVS
Method: universal PBM
Molecule type: double-stranded DNA, one strand shown
Matrix: in vitro
Tested at: 600 nM
Notes: 8-mer, flanks averaged, mean of replicates
Direction: higher = stronger binding
Oligonucleotide	E-score
AGACGCTC	-0.18
CTGCTCAC	-0.185
ATGATGGG	0.0221
CCGCACAC	-0.193
ACCCCTGC	-0.229
CGGAGAAG	-0.183
CTCGATTA	0.14
ATACTCAC	0.1
TCTGCAGA	-0.0372
GAGCGTAC	-0.0856
AGCACTGA	0.0333
GGTCTAGA	-0.135
AGAAATGG	-0.0153
GCCAGGCC	-0.348
GGTGTCCA	-0.211
TAAGACGA	0.112
AATGTACT	0.19
AGGTAGTA	0.126
CGCGGGCA	-0.267
ACGAAACA	0.0334
TAATAGTA	0.297
ATGATCTA	0.194
ACAGGTGA	0.0811
TCAAACAA	0.19
GCGTCACC	-0.363

Sample 3
Target: RING finger protein unkempt homolog, zinc fingers 1-6, GST-SBP tag (UNK, Homo sapiens, UniProt Q9C0B0, residues 30-357)
Method: RNA Bind-n-Seq
Molecule type: RNA
Matrix: in vitro
Tested at: not given
Notes: RNA with constant flanks, ends assumed
Baseline: input RNA pool
Direction: higher = stronger binding
Shared flanks, not repeated: GGGAGUUCUACAGUCCGACGAUC … CAACAGAGGAUUGAGCAUCA
Residues (chain): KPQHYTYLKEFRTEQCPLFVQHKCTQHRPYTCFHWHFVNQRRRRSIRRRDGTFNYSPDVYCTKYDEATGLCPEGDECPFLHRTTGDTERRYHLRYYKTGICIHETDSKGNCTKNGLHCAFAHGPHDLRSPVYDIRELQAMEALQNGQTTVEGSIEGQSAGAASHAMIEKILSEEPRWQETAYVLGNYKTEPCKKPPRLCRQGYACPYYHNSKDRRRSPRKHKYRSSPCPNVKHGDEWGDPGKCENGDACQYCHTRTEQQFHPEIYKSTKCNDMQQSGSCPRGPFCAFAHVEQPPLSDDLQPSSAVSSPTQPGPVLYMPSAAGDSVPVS
Oligonucleotide	bound/input enrichment [ratio]
AUCCCCAAUGUUCUGCGCCGCAUUCGGGAGUCUUUCUUUCGCGUGGUGCCGCAGUUUGCCGUGUUUUAUCUUAUCUACACAUGGGGGACUGAAGAGUUCGAGAGAUCCAAGAGGAAGAAU	0.106
UGAUAUAUAAACCUUAAGUGAAAUGAAAGAAAAAGAUCUAUUGCAGAUAUCUGAUGGAUGCCGUUUUCUUUUUUUAAAUUAGAAAUGCCACUUCUAUUGUAUUGUCUCACACAUGCUCUA	1.45
AAAAGAGCUAAUCCUCAAGUCGGCGUGGCUUUUCCUCAUAUCAAGCAUAACUAUGAGUGUUCCGUGUAUGUGCAGCUGCCUUUCAUGGAAGACUUGCGGCAAUACAUGUUUUCAUCCUUG	0.0377
GAAGACGGCGACUGUACAUUAUCUCACUUAGAGAAUAUGAAAAUCAUUUUGUUUUGAAGCCCGGUAUUAAACUGGAGUAGCUAUUACGUUCUUGAAAACUGGGGCAGGUGUGCCCUUGAC	21
GGUCCUGGCCCCUUACAAGAGAGAUCUCUCUUUGAGAAAAAGAGGGGCGCUCCUCCAAGCCGCAAUAUUGAAGACUUCCAUGGACUCUUACCGAAGGGUUAUCCCCAUCUGUGCUCUAUA	0.149
ACAGUUGUGCCACAAGUGCCCACCUCUCCUAAAUCCAGCCUUAGCGUCCAACCUGGAUUCCCCGCUGAUCUUAACAGGACAUUGCAGCGCAAGUCUAUCACGCGGCAUGGCUCCCUGUCC	0.168
GAACAGCUCACGAGAGGGUCCGUCGUAACCUGUUGAGUAACUAUGGAAGACUAUAUCAAAACCGAGAAAAUUGGAGAAGGUACUUACGGUGUGGUGUAUAAGGGUAGACACAGAGUCACU	0.23

Sample 4
Target: RNA binding protein fox-1 homolog 2, RRM domain, GST-SBP tag (RBFOX2, Homo sapiens, UniProt O43251-10, residues 100-194)
Method: RNA Bind-n-Seq
Molecule type: RNA
Matrix: in vitro
Tested at: 365 nM
Notes: natural RNA segment, single round, ends assumed
Baseline: no-protein control
Direction: higher = stronger binding
Shared flanks, not repeated: GGGAGUUCUACAGUCCGACGAUC … UGGAAUUCUCGGGUGCCAA
Residues (chain): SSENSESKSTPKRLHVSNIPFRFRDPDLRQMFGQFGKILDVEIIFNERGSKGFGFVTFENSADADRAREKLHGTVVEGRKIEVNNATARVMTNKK
Oligonucleotide	RBNS enrichment (R)
UCUAGGAUGAGACAGAAAAUGAAAGCAUGUUGUUUGCCAGGACACUGUGGGUUUAUAUUGAUGUGUAACAAGUUGAUUUGGAACACUGGACUCUCAUUCUGUUAUUCUGG	2.14
CUGGAAAGUAGUCUUGAGAGGCAGAAGCCGAAGGUUCGAGAGCCAGUGUUUAAUGUGCAGGAUCUAGAGAGUUGUCAAAGCAGAAGCUGAGAGCGCAGACCUAUUUCUAG	0.517
UGGUUUUUGGGAUAGAACUUGGGCCAGGGCUAGGAACACAGGCUCCACGGUGACAUGUCAUUUGAUUGUAAAUUAAGUGUUCUGAUUAGUAAGAACUAAGCAGGGGGCCA	0.343
GCCACUACCUUGGGUGUCCUUACAGCUCUGCCCUGACCCCAGCCCCUGCCCCUGGACACCUGCUGACAGCUCCCACACAGAACAGUCUGAGGUGAUGCUGGCUACAGCCC	0.351
CGGCCCCAGAGCUAAAAGCACCAGAGAAAAUCAAAUGCUUCCUACUCAGCGUGACCCAACUUUUCUAGUGUGCCACGGCCCCACCACCUCCUGCAGUACCCACACCAUCA	0.368
UGGGGCAGUCUGACUUCACUUUAGUGUAUGACGUCUGUAGCCAAUGGGAACGUGAAAUAUUGGUGCGAUCACUGAACCAAAGGGAUUGUGUUCUGUGACUUUGGUACUUU	1.22
AAGGGCACAGUUGUGGUACUGUCAUUGAUAAUAAUAUAGUUUUUUUUUUUUUCCUAAUUUUGACCUGUUUCACCAGUGUUUUACCCUUGACUGCCCCUUCUAUGCUGCUU	0.838
CUGCAUAGGUACAUCUAACUCUGGACUGGCAUGCACAUUGUCAUGUGCAGCUUUGCAUAUACACACAUGCAUACAUGAGCCUCCACACAAGCACUUGCACACAUGUGGAC	0.468
AAACAGUUGCAUCUGUAGAUUAAGAUGCUUUACAUUAGACCGUUGUGUCUCGAUGUAUAUCUGUAUAUAUUAUUUGAUAAUCAGAAAAUCUAUAGAGUUCACACACACAC	0.356
AUUUCAUGGAGUCGUAUCAACGCUAUGAACGCAAGGCUGUGAUAUGGAACCAGAAGGCUGUCUGAACUUUUGAAACCUUGUGUGGGAUUGAUGGUGGUGCCGAGGCAUGA	21.6
AAUUCUAGAAGCUCUUUAAAAGGGAAGUUUUCCUUCUUCUCCAAUUAUAGGAGUUGAUUUUUACUUUGCAAAGUGGCUCGGUCCUCAUGAGCAUCUGCAUGUUGACUCUU	4.21
CACUCAUCUGUCAAGUGGGGGCGCUUCCCUUCCAGCAUCACCUGCAGCAGACGGGCUCUCGGGAGUCGUGGGUUCCAGGCAGCUGUGUGGACCCAGGGACAGACAUUCAA	0.499

Sample 5
Target: Interferon regulatory factor 5, full length, phosphomimetic (IRF5, Homo sapiens, UniProt Q13568-2, residues 1-514, K96S/S451D/S453D/S456D/S462D)
Method: protein-binding microarray
Molecule type: double-stranded DNA, one strand shown
Matrix: in vitro
Tested at: 250 nM
Notes: 60-bp whole probe
Together with: salmon DNA 0.4 mg/ml
Baseline: random background probes
Direction: higher = stronger binding
Shared flanks, not repeated: GCCTAGCAC … GTCTTGATTCGCTTGACGCTGCTG
Oligonucleotide	log fluorescence
CTCTCTTTCCACTTGTCTTTGTGCTAG	1.59 z-score
TATCCTTCCCCTCTAGGTTCGTGCTAG	0.53 z-score
CCCTGTGTCCACAGCTGGATGTGCTAG	-0.548 z-score
ATGAGTCTCAATATTAGAGTGTGCTAG	0.239 z-score
GACGGTTTCGTCTTTCGGGACGTGCTA	6.34 z-score
TTAGGACTGGACAGTGGGTTAGTGCTA	-0.129 z-score
TTAGAACTGAGTTTCGGTTAGTGCTAG	10.2 z-score
TCTTTTTTTTCTTTAAAAGTGTGCTAG	1.44 z-score
AGTATGTTCCTTATTTAAGAGTGCTAG	0.293 z-score
TTACCTCTCACGCATCTGAAAGTGCTA	0.695 z-score
TCAAGTCTGGGCTACAACTTGGTGCTA	-0.656 z-score
GACGAACTGAGTCTCGAGTCGTGCTAG	0.124 z-score
GACGGTCTCGGACAGGGGACGTGCTAG	-0.353 z-score
GACGGACTGGGTTTTGGGACGTGCTAG	-0.158 z-score
TTTGATCTCAGTTTCGATTAGTGCTAG	9.61 z-score
GACGGTCTCGGTATCGAGACGTGCTAG	1.05 z-score
GATGGTATCGGGACTGGGGACGTGCTA	1.76 z-score
TTAGATATCGAGACTGGATTAGTGCTA	1.47 z-score
TTAGGTATCGACTATCGGCTAGTGCTA	5.66 z-score
GACGGACTGGACTTTCCGGACGTGCTA	-0.495 z-score
GACGATATCAGTATCGAGAGGTGCTAG	3.49 z-score

Sample 6
Target: Centromere-binding protein 1, full length, N-terminal tag (CBF1, Saccharomyces cerevisiae, UniProt P17106, residues 1-351)
Chain of UniProt P17106 (whole entry, looked up): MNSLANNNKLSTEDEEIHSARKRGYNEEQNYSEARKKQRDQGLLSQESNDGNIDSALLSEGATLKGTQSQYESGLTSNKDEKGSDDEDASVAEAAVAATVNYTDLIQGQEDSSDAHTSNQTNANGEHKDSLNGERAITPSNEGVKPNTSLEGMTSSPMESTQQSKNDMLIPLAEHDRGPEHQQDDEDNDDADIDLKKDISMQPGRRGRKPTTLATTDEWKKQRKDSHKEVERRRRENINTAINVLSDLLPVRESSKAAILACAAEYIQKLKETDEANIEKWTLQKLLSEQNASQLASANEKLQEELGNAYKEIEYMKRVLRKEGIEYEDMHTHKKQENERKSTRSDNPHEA
Method: protein-binding microarray
Molecule type: double-stranded DNA, one strand shown
Matrix: in vitro
Tested at: 0.8 µM
Notes: whole 60-bp probe, no competitor
Direction: higher = stronger binding
Shared flanks, not repeated: … GTCTTGATTCGCTTGACGCTGCTG
Oligonucleotide	fluorescence intensity
CTATTTCGTTAACGTGGTGAAAAAGAAAAGAAATTC	807 a.u.
GAATTCTCCCGCTAACACGTTTATACCCTTTCTTAG	576 a.u.
GAATTATTATTCTATCACGATCTGAGTCCCTGCTAG	624 a.u.
GAAATTTATGGGCACCTGATAATGCTTGGCAGCTAG	1780 a.u.
GAAACCATGTATGCTCATGACTCCATATAGGACTAG	572 a.u.
CTAGTGATAGAAGAAAAGGTGACGAAAAGATTGTTC	589 a.u.
CTATGGAACAAATGTGTCACCAAGGTTGGAACATTC	512 a.u.
GAAAAAATAAAACCTCATATGATTTACTTTATTTAG	523 a.u.
GAAACTTTTAGCTCAAACGTGGTAAAACTATCTTAG	562 a.u.
CCTAACTACTATAAACATCAGCGATAGCTTCGTACA	517 a.u.
CTAAGACCTGTCCGTGATGTCGAGGACACGATATTC	546 a.u.
CTATGGATCAACAAGCACATGTTTTTCTAATTATTC	752 a.u.
CTAGGTAACAAATCTGGTGAAATCACCATTAAATTC	492 a.u.
GAAAAATCTTCAGGTCACAAGGTATACTTCACTTAG	944 a.u.
GAAAATTGTGAGGCTGATGTTTTCTTCTTTAAATAG	529 a.u.
CTAGCAGATTATAAATGCGTGGTGTAAAATTCTTTC	560 a.u.
GAACACTCCAAGAACCGCGTGAAGAAAATGTCATAG	585 a.u.
CTAAGAATCTAAGCCAACACGCACAATAGACTCTTC	494 a.u.
CCTAACTACTATATTCGTGTGCCATAGCTTCGTACA	513 a.u.
CCTAACTACTATACACGTGTTATATAGCTTCGTACA	6900 a.u.
CTAGACTAATCGGCGCATGTTTTACACCTCTTTTTC	517 a.u.
CTACAGCTCAACAGCGTGGTGACGAGTTGCGTCTTC	504 a.u.

For quick reference, copied from above (sample 1):
Oligonucleotide	E-score
ACTCGGAT	0.108
CTAACAAA	-0.0929
AAAGTGTC	-0.0632
CGCTCTAC	0.147
ATACATTA	0.0371
GCCTTTGA	-0.0571
AGGATAAG	-0.05
CTTCGGCC	0.0433
ATGATCCG	0.21
AGGCTTAA	-0.0968
ACGACGGA	0.222
AATGAGAA	-0.0102
CAAACATC	-0.0826
CGCGATAA	0.122
GGAGTTCA	-0.129
